Published values collected from several papers.
Protocols differ between the studies behind these lines.

CC[C@H](C)[C@H](N)C(=O)N[C@@H](CCCNC(=N)N)C(=O)N[C@H](C(=O)N[C@@H](Cc1c[nH]c2ccccc12)C(=O)N[C@@H](Cc1c[nH]c2ccccc12)C(=O)N[C@@H](CCCCN)C(=O)N[C@H](C(=O)N[C@H](C(=O)N[C@@H](CCCNC(=N)N)C(=O)N[C@@H](CCCCN)C(=O)N[C@@H](Cc1c[nH]c2ccccc12)C(=O)N[C@@H](CCCCN)C(=O)N[C@@H](C)C(=O)N[C@H](C(=O)N[C@@H](Cc1c[nH]c2ccccc12)C(=O)N[C@@H](Cc1c[nH]cn1)C(N)=O)[C@@H](C)CC)C(C)C)[C@@H](C)CC)C(C)C — MIC (Salmonella typhimurium; broth dilution; SL1344): 50 µM
N=C(N)NCCC[C@H](NC(=O)[C@H](Cc1c[nH]c2ccccc12)NC(=O)[C@H](CCCNC(=N)N)NC(=O)[C@H](Cc1c[nH]c2ccccc12)NC(=O)[C@H](Cc1c[nH]c2ccccc12)NC(=O)[C@H](Cc1c[nH]c2ccccc12)NC(=O)[C@H](CCCNC(=N)N)NC(=O)[C@H](Cc1c[nH]c2ccccc12)NC(=O)[C@@H](N)CCCNC(=N)N)C(N)=O — MIC (Candida albicans; broth microdilution; CGMCC 2.209, RPMI 1640-MOPS; 48 h, 30 °C, with: MgCl2 1 mM): 8 µM
CC1NC(=O)C(C(=O)NC(C(=O)NC2C(=O)N3C2SC(C)(C)C3C(=O)O)c2ccccc2)=C1O (stereo not shown) — MIC (Escherichia coli; broth microdilution; isolate IU 356 A, KPC-3, VIM-1, TEM; no clavulanic acid): > 200 µg/mL
CC[C@H](C)C[C@H](C)CCCCCCCCC(=O)N[C@H]1C[C@@H](O)[C@@H](NCCN)NC(=O)[C@@H]2[C@@H](O)CCN2C(=O)[C@H]([C@H](O)CCN)NC(=O)[C@H]([C@H](O)[C@@H](O)c2ccc(O)cc2)NC(=O)[C@@H]2C[C@@H](O)CN2C(=O)[C@H]([C@@H](C)O)NC1=O — MIC (Candida glabrata; EUCAST broth microdilution; clinical isolate, RPMI 1640 MOPS-buffered 2% glucose; 48 h, pH 7.0, 24 °C): 0.125 µg/mL
CCCCCCCCCCCCCCCC(=O)NS(=O)(=O)OCCCC — MIC (Streptococcus pneumoniae): 25 µg/mL
O=C(O)CN(CC(=O)O)CC(=O)O — MIC (Providencia stuartii; NDM-1 producer; 32 µg/mL, MIC of meropenem, with: meropenem): 0.25 µg/mL
CC(=O)N1CCN(c2ccc(OCC3COC(Cn4ccnc4)(c4ccc(Cl)cc4Cl)O3)cc2)CC1 (stereo not shown) — MIC (Candida albicans; broth microdilution; 14936, RPMI 1640-MOPS; 48 h, 30 °C): > 64 µM
CCCCCC/C=C\CCCCCCCCCC(=O)CP(=O)(O)O — MIC (Streptococcus pneumoniae): 200 µg/mL
CC1(C)S[C@@H]2[C@H](NC(=O)[C@H](N)c3ccccc3)C(=O)N2[C@H]1C(=O)O — MIC (Escherichia coli; broth microdilution; isolate IU 356 A, KPC-3, VIM-1, TEM; with: clavulanic acid 6 µg/mL): > 200 µg/mL
CCCCCCCCCCCCN(C)C(=O)CP(=O)(O)O — MIC (Streptococcus pneumoniae): > 200 µg/mL
N=C(N)c1ccc(OCCCCCOc2ccc(C(=N)N)cc2)cc1 — MIC (Escherichia coli; BW25113 mcr-1; compound alone): > 200 µg/mL
CC1(C)SC2C(NC(=O)C(NC(=O)C3=C(O)C(Cc4ccc(O)cc4)NC3=O)c3ccccc3)C(=O)N2C1C(=O)O (stereo not shown) — MIC (Escherichia coli; broth microdilution; Keio mutant JW0587-1; 18 h, enterobactin-related gene): 50 µg/mL
CC[C@H](C)[C@H](NC(=O)CN)C(=O)NCC(=O)N[C@@H](C)C(=O)N[C@H](C(=O)N[C@@H](CC(C)C)C(=O)N[C@@H](CCCCN)C(=O)N[C@H](C(=O)N[C@@H](CC(C)C)C(=O)N[C@H](C(=O)N[C@H](C(=O)NCC(=O)N[C@@H](CC(C)C)C(=O)N1CCC[C@H]1C(=O)N[C@@H](C)C(=O)N[C@@H](CC(C)C)C(=O)N[C@H](C(=O)N[C@@H](CO)C(=O)N[C@@H](Cc1c[nH]c2ccccc12)C(=O)N[C@H](C(=O)N[C@@H](CCCCN)C(=O)N[C@@H](CCCNC(=N)N)C(=O)N[C@@H](CCCCN)C(=O)N[C@@H](CCCNC(=N)N)C(=O)N[C@@H](CCC(N)=O)C(=O)N[C@@H](CCC(N)=O)C(N)=O)[C@@H](C)CC)[C@@H](C)CC)[C@@H](C)O)[C@@H](C)O)C(C)C)C(C)C — MIC (Candida albicans; broth microdilution; SP 3931, RPMI-1640; 48 h, 30 °C): 4 µM
CC1(C)SC2C(NC(=O)C(NC(=O)C3=C(O)C(c4ccccc4)NC3=O)c3ccccc3)C(=O)N2C1C(=O)O (stereo not shown) — MIC (Escherichia coli; broth microdilution; isolate IU 356 A, KPC-3, VIM-1, TEM; no clavulanic acid): > 200 µg/mL
CC[C@H](C)[C@H](NC(=O)[C@H](CCCCN)NC(=O)[C@@H](NC(=O)[C@H](Cc1ccc(O)cc1)NC(=O)[C@H](CCCCN)NC(=O)[C@H](CCCCN)NC(=O)CNC(=O)[C@H](CCCCN)NC(=O)[C@@H](NC(=O)[C@H](C)NC(=O)[C@H](CC(C)C)NC(=O)[C@H](Cc1c[nH]c2ccccc12)NC(=O)CNC(=O)[C@@H](NC(=O)[C@H](Cc1ccccc1)NC(=O)[C@H](CCCCN)NC(=O)[C@H](CC(C)C)NC(=O)[C@H](Cc1ccccc1)NC(=O)[C@H](C)NC(=O)CNC(=O)[C@@H](N)CCSC)C(C)C)[C@@H](C)O)C(C)C)C(=O)N[C@@H](C)C(=O)N[C@@H](Cc1c[nH]c2ccccc12)C(=O)N[C@@H](CC(=O)O)C(=O)N[C@@H](Cc1c[nH]cn1)C(=O)N[C@@H](CCCCN)C(=O)NCC(=O)N[C@H](C(=O)N[C@H](C(=O)N[C@@H](CCSC)C(=O)N[C@@H](CCCCN)C(=O)N[C@@H](Cc1c[nH]c2ccccc12)C(=O)N[C@@H](CC(C)C)C(=O)N[C@@H](CC(N)=O)C(=O)N[C@@H](C)C(=O)NCC(=O)N[C@@H](CCC(N)=O)C(=O)N[C@H](C(=O)N[C@@H](Cc1ccccc1)C(=O)N[C@H](C(=O)N[C@@H](Cc1c[nH]c2ccccc12)C(=O)N[C@H](C(=O)N[C@@H](Cc1ccc(O)cc1)C(=O)N[C@@H](CCC(=O)O)C(=O)N[C@@H](CCC(N)=O)C(=O)N[C@H](C(=O)N[C@@H](CCCCN)C(=O)N[C@@H](CCCCN)C(=O)N[C@@H](CC(C)C)C(=O)N[C@@H](Cc1c[nH]c2ccccc12)C(=O)N[C@H](C(=O)O)[C@@H](C)O)[C@@H](C)CC)C(C)C)[C@@H](C)O)[C@@H](C)O)[C@@H](C)CC)[C@@H](C)O — MIC (Corynebacterium ulcerans; 37 °C, non-formylated synthetic): 31.3 µg/mL
N=C(N)c1ccc(OCc2cccc(COc3ccc(C(=N)N)cc3)c2)cc1 — MIC (Escherichia coli; mcr-1; 20 h, compound alone): > 200 µg/mL
CCCCCC/C=C\CCCCCCCCCC(=O)NP(=O)(O)O — MIC (Streptococcus pneumoniae): > 200 µg/mL
CCN1CCN(C(=O)N[C@@H](C(=O)N[C@@H]2C(=O)N3[C@@H]2SC(C)(C)[C@@H]3C(=O)O)c2ccccc2)C(=O)C1=O — MIC (Escherichia coli; broth microdilution; Keio mutant JW0146-2; 18 h, ferric hydroxamate uptake gene): 3.12 µg/mL
CC(C)[C@H](NC(=O)[C@H](CCCNC(=N)N)NC(=O)[C@H](Cc1c[nH]c2ccccc12)NC(=O)[C@H](CCCNC(=N)N)NC(=O)[C@H](Cc1c[nH]c2ccccc12)NC(=O)[C@H](Cc1c[nH]c2ccccc12)NC(=O)[C@H](Cc1c[nH]c2ccccc12)NC(=O)[C@H](CCCNC(=N)N)NC(=O)[C@H](Cc1c[nH]c2ccccc12)NC(=O)[C@H](CCCNC(=N)N)NC(=O)CN)C(N)=O — MIC (Candida albicans; broth microdilution; CGMCC 2.209, RPMI 1640-MOPS; 48 h, 30 °C, with: ZnCl2 8 µM): 8 µM
CC1(C)SC2C(NC(=O)C(NC(=O)C3=C(O)C(Cc4ccccc4)NC3=O)c3ccccc3)C(=O)N2C1C(=O)O (stereo not shown) — MIC (Escherichia coli; broth microdilution; Keio mutant JW0146-2; 18 h, ferric hydroxamate uptake gene): 12.5 µg/mL
O=C(NN=Cc1ccc(O)c(Br)c1)c1cccc(Br)c1 — MIC (Cryptococcus neoformans; compound alone, with: amphotericin): 0.3 µg/mL
CC[C@H](C)[C@H](NC(=O)CN)C(=O)NCC(=O)N[C@@H](C)C(=O)N[C@H](C(=O)N[C@@H](CC(C)C)C(=O)N[C@@H](CCCCN)C(=O)N[C@H](C(=O)N[C@@H](CC(C)C)C(=O)N[C@H](C(=O)N[C@H](C(=O)NCC(=O)N[C@@H](CC(C)C)C(=O)N1CCC[C@H]1C(=O)N[C@@H](C)C(=O)N[C@@H](CC(C)C)C(=O)N[C@H](C(=O)N[C@@H](CO)C(=O)N[C@@H](Cc1c[nH]c2ccccc12)C(=O)N[C@H](C(=O)N[C@@H](CCCCN)C(=O)N[C@@H](CCCNC(=N)N)C(=O)N[C@@H](CCCCN)C(=O)N[C@@H](CCCNC(=N)N)C(=O)N[C@@H](CCC(N)=O)C(=O)N[C@@H](CCC(N)=O)C(N)=O)[C@@H](C)CC)[C@@H](C)CC)[C@@H](C)O)[C@@H](C)O)C(C)C)C(C)C — MIC (Candida albicans; broth microdilution; 56467, RPMI 1640-MOPS; 48 h, 30 °C): 4 µM
CC1(C)SC2C(NC(=O)C(NC(=O)C3=C(O)CN(c4ccccc4)C3=O)c3ccccc3)C(=O)N2C1C(=O)O (stereo not shown) — MIC (Escherichia coli; broth microdilution; isolate IU, CTX-M-14, TEM-1; no clavulanic acid): > 200 µg/mL
C[C@H](NC(=O)[C@H](CCCNC(=N)N)NC(=O)[C@H](Cc1c[nH]c2ccccc12)NC(=O)[C@H](CCCNC(=N)N)NC(=O)[C@H](Cc1c[nH]c2ccccc12)NC(=O)[C@H](Cc1c[nH]c2ccccc12)NC(=O)[C@H](Cc1c[nH]c2ccccc12)NC(=O)[C@H](CCCNC(=N)N)NC(=O)[C@H](Cc1c[nH]c2ccccc12)NC(=O)[C@@H](N)CCCNC(=N)N)C(N)=O — MIC (Candida albicans; broth microdilution; 14936, RPMI 1640-MOPS; 48 h, 30 °C): 4 µM
CC1(C)SC2C(NC(=O)C(NC(=O)C3=C(O)C(Cc4ccc([N+](=O)[O-])cc4)NC3=O)c3ccccc3)C(=O)N2C1C(=O)O (stereo not shown) — MIC (Escherichia coli; broth microdilution; Keio mutant JW5086-3; 18 h, ferrienterobactin permease gene): 25 µg/mL

Excerpt of the above:
CC[C@H](C)[C@H](NC(=O)[C@H](CCCCN)NC(=O)[C@@H](NC(=O)[C@H](Cc1ccc(O)cc1)NC(=O)[C@H](CCCCN)NC(=O)[C@H](CCCCN)NC(=O)CNC(=O)[C@H](CCCCN)NC(=O)[C@@H](NC(=O)[C@H](C)NC(=O)[C@H](CC(C)C)NC(=O)[C@H](Cc1c[nH]c2ccccc12)NC(=O)CNC(=O)[C@@H](NC(=O)[C@H](Cc1ccccc1)NC(=O)[C@H](CCCCN)NC(=O)[C@H](CC(C)C)NC(=O)[C@H](Cc1ccccc1)NC(=O)[C@H](C)NC(=O)CNC(=O)[C@@H](N)CCSC)C(C)C)[C@@H](C)O)C(C)C)C(=O)N[C@@H](C)C(=O)N[C@@H](Cc1c[nH]c2ccccc12)C(=O)N[C@@H](CC(=O)O)C(=O)N[C@@H](Cc1c[nH]cn1)C(=O)N[C@@H](CCCCN)C(=O)NCC(=O)N[C@H](C(=O)N[C@H](C(=O)N[C@@H](CCSC)C(=O)N[C@@H](CCCCN)C(=O)N[C@@H](Cc1c[nH]c2ccccc12)C(=O)N[C@@H](CC(C)C)C(=O)N[C@@H](CC(N)=O)C(=O)N[C@@H](C)C(=O)NCC(=O)N[C@@H](CCC(N)=O)C(=O)N[C@H](C(=O)N[C@@H](Cc1ccccc1)C(=O)N[C@H](C(=O)N[C@@H](Cc1c[nH]c2ccccc12)C(=O)N[C@H](C(=O)N[C@@H](Cc1ccc(O)cc1)C(=O)N[C@@H](CCC(=O)O)C(=O)N[C@@H](CCC(N)=O)C(=O)N[C@H](C(=O)N[C@@H](CCCCN)C(=O)N[C@@H](CCCCN)C(=O)N[C@@H](CC(C)C)C(=O)N[C@@H](Cc1c[nH]c2ccccc12)C(=O)N[C@H](C(=O)O)[C@@H](C)O)[C@@H](C)CC)C(C)C)[C@@H](C)O)[C@@H](C)O)[C@@H](C)CC)[C@@H](C)O — MIC (Corynebacterium ulcerans; 37 °C, non-formylated synthetic): 31.3 µg/mL
N=C(N)c1ccc(OCc2cccc(COc3ccc(C(=N)N)cc3)c2)cc1 — MIC (Escherichia coli; mcr-1; 20 h, compound alone): > 200 µg/mL
CCCCCC/C=C\CCCCCCCCCC(=O)NP(=O)(O)O — MIC (Streptococcus pneumoniae): > 200 µg/mL
